{"data": "Published values pooled from the literature", "organism": "Candida albicans", "note": "Each line is one published result; not all experiments were run side by side."}
{"SMILES": "CC[C@H]1OC(=O)[C@H](C)[C@@H](OC(=O)Cc2cccc(Cl)c2)[C@H](C)[C@@H](O[C@@H]2O[C@H](C)C[C@H](N(C)C)[C@H]2O)[C@](C)(OC)C[C@@H](C)C(=O)[C@H](C)[C@@H](O)[C@]1(C)O", "assay": "microbial growth", "system": "ATCC90028", "MIC": "> 32 µg/mL"}
{"SMILES": "O=c1c(O)c(-c2ccc(O)c(O)c2)oc2cc(O)c(O)c(O)c12", "assay": "microbial growth, broth dilution", "system": "SC5314", "MIC": "16 µg/mL"}
{"SMILES": "N=C(N)NCCC[C@@H]1NC(=O)[C@H](CCCNC(=N)N)NC(=O)[C@@H](CCCNC(=N)N)NC(=O)[C@@H](CCCNC(=N)N)NC(=O)[C@@H](C(c2ccccc2)c2ccccc2)NC(=O)[C@H](Cc2c[nH]c3ccccc23)NC(=O)[C@@H](C(c2ccccc2)c2ccccc2)NC1=O", "system": "CA3", "MIC": "32 µg/mL"}
{"SMILES": "CC[C@H]1OC(=O)[C@H](C)[C@@H](OC(=O)Cc2ccc([N+](=O)[O-])cc2)[C@H](C)[C@@H](O[C@@H]2O[C@H](C)C[C@H](N(C)C)[C@H]2O)[C@](C)(OC)C[C@@H](C)C(=O)[C@H](C)[C@@H](O)[C@]1(C)O", "assay": "microbial growth", "system": "ATCC90028", "MIC": "> 32 µg/mL"}
{"SMILES": "O=C(O[C@@H]1Cc2c(O)cc(O)cc2O[C@@H]1c1cc(O)c(O)c(O)c1)c1cc(O)c(O)c(O)c1", "assay": "microbial growth, broth dilution", "system": "SC5314", "conditions": "24 h", "MIC": "16 µg/mL"}
{"SMILES": "N=C(N)NCCC[C@@H]1NC(=O)[C@H](CCCNC(=N)N)NC(=O)[C@@H](CCCNC(=N)N)NC(=O)[C@H](C(c2ccccc2)c2ccccc2)NC(=O)[C@H](C(c2ccccc2)c2ccccc2)NC(=O)[C@H](C(c2ccccc2)c2ccccc2)NC(=O)[C@H](CCCNC(=N)N)NC1=O", "assay": "fungal growth", "MIC": "8 µg/mL"}
{"SMILES": "COc1ccc(/N=N/C(=S)N2CCCCC2)cc1", "assay": "microbial growth, broth dilution", "system": "ATCC10231", "conditions": "24 h", "MIC": "> 50 µM"}
{"SMILES": "CC[C@H]1OC(=O)[C@H](C)[C@@H](O[C@H]2C[C@@](C)(OC)[C@@H](O)[C@H](C)O2)[C@H](C)[C@@H](O[C@@H]2O[C@H](C)C[C@H](N(C)C)[C@H]2O)[C@](C)(OC)C[C@@H](C)C(=O)[C@H](C)[C@@H](O)[C@]1(C)O", "assay": "microbial growth", "system": "ATCC90028", "MIC": "> 32 µg/mL"}
{"SMILES": "CCCC(C)Oc1cccc(NC(=O)c2cccnc2)c1 (stereo not shown)", "MIC": "4 µg/mL"}
{"SMILES": "COC1=CC(c2ccc[nH]2)=NC1=CNC1CCCCCC1.Cl", "assay": "broth microdilution", "system": "ATCC 90028", "conditions": "24 h", "MIC": "16 µg/mL"}
{"SMILES": "O=C(COP(=O)(O)O)C(O)C(O)C(O)COP(=O)(O)O (stereo not shown)", "assay": "microbial growth, broth dilution", "system": "SC5314", "conditions": "24 h", "MIC": "> 128 µg/mL"}
{"SMILES": "COc1ccc(/N=N/C(=S)N2CCCC2)cc1", "assay": "microbial growth, broth dilution", "system": "ATCC10231", "conditions": "24 h", "MIC": "> 50 µM"}
{"SMILES": "CC[C@H]1OC(=O)[C@H](C)[C@@H](OC(=O)c2ccc(N)cc2)[C@H](C)[C@@H](O[C@@H]2O[C@H](C)C[C@H](N(C)C)[C@H]2O)[C@](C)(OC)C[C@@H](C)C(=O)[C@H](C)[C@@H](O)[C@]1(C)O", "assay": "microbial growth", "system": "ATCC90028", "MIC": "> 32 µg/mL"}
{"SMILES": "CCc1cnn2c(NCc3ccc[n+]([O-])c3)cc(N3CCCCC3CCO)nc12 (stereo not shown)", "assay": "microbial growth, broth dilution", "system": "SC5314", "MIC": "> 128 µg/mL"}
{"SMILES": "CC[C@H]1OC(=O)[C@H](C)[C@@H](OC(=O)Cc2ccc(C(F)(F)F)cc2)[C@H](C)[C@@H](O[C@@H]2O[C@H](C)C[C@H](N(C)C)[C@H]2O)[C@](C)(OC)C[C@@H](C)C(=O)[C@H](C)[C@@H](O)[C@]1(C)O", "assay": "microbial growth", "system": "ATCC90028", "MIC": "> 8 µg/mL"}
{"SMILES": "N=C(N)NCCC[C@@H]1NC(=O)[C@H](CCCNC(=N)N)NC(=O)[C@H](CCCNC(=N)N)NC(=O)[C@@H](CCCNC(=N)N)NC(=O)[C@H](Cc2ccc3ccccc3c2)NC(=O)[C@H](Cc2ccc3ccccc3c2)NC(=O)[C@H](Cc2ccc3ccccc3c2)NC1=O", "system": "CA3", "MIC": "16 µg/mL"}
{"SMILES": "NCCOCCOCCNC(=O)Cc1ccc(Nc2nc(NCc3ccc(F)cc3)nc(NCC3CCCCC3)n2)cc1", "assay": "microbial growth, broth dilution", "system": "SC5314", "MIC": "1 µg/mL"}
{"SMILES": "CC[C@H]1OC(=O)[C@H](C)[C@@H](OC(=O)Cc2cccc3ccccc23)[C@H](C)[C@@H](O[C@@H]2O[C@H](C)C[C@H](N(C)C)[C@H]2O)[C@](C)(OC)C[C@@H](C)C(=O)[C@H](C)[C@@H](O)[C@]1(C)O", "assay": "microbial growth", "system": "ATCC90028", "MIC": "> 32 µg/mL"}
{"SMILES": "COC1=CC(c2ccc[nH]2)=NC1=CNC(C)(C)C.Cl", "assay": "broth microdilution", "system": "ATCC 90028", "conditions": "24 h", "MIC": "64 µg/mL"}
{"note": "For quick reference, copied from above:"}
{"SMILES": "COc1ccc(/N=N/C(=S)N2CCCCC2)cc1", "assay": "microbial growth, broth dilution", "system": "ATCC10231", "conditions": "24 h", "MIC": "> 50 µM"}
